Measured values gathered from unrelated publications.
Lines come from different studies, so protocols differ. Values joined by “and” are separate records of one study, mostly repeats; a detail may differ. ± gives the spread as reported. Converted amounts (≈) assume the structure as drawn.
UniProt P08684, sequence (whole entry, looked up): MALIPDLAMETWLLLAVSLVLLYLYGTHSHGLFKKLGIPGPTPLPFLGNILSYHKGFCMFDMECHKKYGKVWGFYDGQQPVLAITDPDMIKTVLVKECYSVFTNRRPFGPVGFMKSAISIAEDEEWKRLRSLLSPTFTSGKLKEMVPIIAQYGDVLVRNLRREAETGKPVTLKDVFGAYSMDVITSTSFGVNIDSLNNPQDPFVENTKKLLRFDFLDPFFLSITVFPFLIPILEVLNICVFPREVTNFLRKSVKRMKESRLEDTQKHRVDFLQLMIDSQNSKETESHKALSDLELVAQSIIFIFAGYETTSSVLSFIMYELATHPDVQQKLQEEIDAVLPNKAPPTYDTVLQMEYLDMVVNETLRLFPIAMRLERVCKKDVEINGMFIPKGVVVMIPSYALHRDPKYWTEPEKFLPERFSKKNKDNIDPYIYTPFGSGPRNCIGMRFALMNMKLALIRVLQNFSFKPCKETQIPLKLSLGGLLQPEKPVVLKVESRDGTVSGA
UniProt P25929, sequence (whole entry, unmodified, looked up): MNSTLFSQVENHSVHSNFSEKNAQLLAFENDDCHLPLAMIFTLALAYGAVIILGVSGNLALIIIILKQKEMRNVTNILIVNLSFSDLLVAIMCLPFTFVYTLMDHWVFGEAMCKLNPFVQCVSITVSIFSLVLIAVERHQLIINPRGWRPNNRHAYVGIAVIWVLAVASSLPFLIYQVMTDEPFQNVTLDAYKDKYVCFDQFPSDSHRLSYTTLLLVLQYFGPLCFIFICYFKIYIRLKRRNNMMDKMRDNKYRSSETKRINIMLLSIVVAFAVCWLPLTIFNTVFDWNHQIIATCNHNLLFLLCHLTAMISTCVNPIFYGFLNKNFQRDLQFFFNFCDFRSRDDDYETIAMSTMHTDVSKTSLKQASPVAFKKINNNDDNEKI

`[Cl][Pd-]1([Cl])[S]C(Nc2ccccc2)=N[N+]1=Cc1ccc(-c2ccccc2)s1` has a cytotoxic concentration of at least 100 µM (HEL human lung fibroblasts; altered cell morphology, microscopy; confluent cultures).
`CC(=O)OC[C@H]1O[C@@H](Sc2sc(C(=O)c3ccc(C)cc3)c(N)c2-c2nc3ccccc3s2)[C@H](OC(C)=O)[C@@H](OC(C)=O)[C@H]1OC(C)=O` gave a growth percent of 73% (MDA-MB-231 breast cancer; SRB; 10 µM, 48 h).
With `CSCC[C@H](NC(=O)[C@H](CC(C)C)NC(=O)[C@H](Cc1c[nH]cn1)NC(=O)CNC(=O)[C@@H](NC(=O)[C@H](C)NC(=O)[C@H](Cc1c[nH]c2ccccc12)NC(=O)[C@H](CCC(N)=O)NC(=O)CCOCCOCCOCCOCCNC(=O)CN1CCN(CC(=O)O)CCN(CC(=O)O)CCN(CC(=O)O)CC1)C(C)C)C(N)=O` [indium-111 labelled] the tissue uptake was 3.6 ± 0.4 %ID/g (Swiss nu/nu mouse, male, PC-3 tumour xenograft, colon; intravenous, 10 pmol, 4 h).
Under α-tubulin acetylation, `COCCn1cc(COc2cccc(Cc3cnc(NC(=O)CSc4nc(C)cc(C)n4)s3)c2)nn1` is recorded as “increased” (PC-3M-luc; immunofluorescence; 20 µM, 5 h).
For `CCC(=C(c1ccc(Cl)cc1)c1ccc(OCCCN(C)C)cc1)c1ccccc1`, the growth inhibition was 5.02% (NCI-60 tumour cell lines; 10 µM, mean over cell lines).
`COc1cc(CNC(=O)C[C@H](C)CCC=C(C)C)ccc1OCc1cn(-c2ccccc2Cl)nn1` has a growth percent of 56.4% (SF-295 CNS cancer cells; SRB; 10 µM, 48 h).
`O=C1Nc2ccc(Cl)cc2C1=Cc1c(Cl)[nH]c2c1ccc1ccccc12` has a TGI of 7.24 µM (leukaemia subpanel of NCI-60; 48 h).
Under “relative protein expression”, `Cc1csc(CCCNc2nc3c(c(=O)[nH]2)[n+](C)cn3C2OC(COP(=O)(O)OP(=O)([O-])OP(=O)(O)OCC3OC(n4cnc5c(=O)[nH]c(N)nc54)C(O)C3O)C(O)C2O)n1` (stereo not drawn) is recorded as 1.42 and 1.4 (HEK293 transfected with capped mRNA; luciferase expression; reference: m7GpppG-capped mRNA).
`COc1ccc2cc(NC(=O)c3cc(-c4cccnc4)nc4ccccc34)ccc2c1` gave a Km of 5.3 µM (Cytochrome P450 3A4 (CYP3A4, Homo sapiens, UniProt P08684); substrate, LC-MS, measured: hydroxylated metabolite M2; baculosomes).
Under “time to greater relaxation”, `Fc1ccc(Nc2nc(NC3CCCCC3)c3ccccc3n2)cc1F` is recorded as about 44 s (HASM; magnetic twisting cytometry, measured: cell stiffness; 1 µM, with: isoproterenol 10 µM).
`CC(=O)[O-].O.O.[O-]c1ccc(Br)cc1C=NCCN1CCOCC1.[Zn+2]`: “inhibition zone diameter” 30 mm (Aspergillus niger; 20 µL of 100 µM per disc).
The NO release of `C=C(C)[C@@H]1CC[C@]2(C(=O)OCO/N=[N+](\[O-])N3CCCC3)CC[C@]3(C)[C@H](CC[C@@H]4[C@@]5(C)CC[C@H](OC(C)=O)C(C)(C)[C@@H]5CC[C@]43C)[C@@H]12` is reported as about 80% (B16-F10; Griess, measured: nitrite and nitrate; 10 µM, 12 h).
The growth inhibition of `CCC(=C(c1ccc(Cl)cc1)c1ccc(OCCN2CCCCC2)cc1)c1ccc(OC)cc1` is reported as 43.3% (NCI-60 tumour cell lines; 10 µM, mean over cell lines).
`CC1(C)C(/C=C/C2=C(Cl)C(=C/C=C3/N(CCCCCC(=O)O)c4ccccc4C3(C)C)/C[N+](C)(C)C2)=[N+](CCCCCC(=O)O)c2ccccc21`: “Pearson's correlation coefficient” 0.45 (U-87 MG; organelle co-localization, confocal imaging; 20 µM, 24 h, lysosome).
`CCC(=O)NCCCCNC(=O)NCc1ccc(CNC(=O)[C@@H](CCCNC(=N)N)NC(=O)C(c2ccccc2)c2ccccc2)cc1` has a Kb of 0.118 µM (NPY1R (Homo sapiens, UniProt P25929, Q120N); antagonist; human cells).
`CC(C)(O)c1ccc(N2Cc3c(ccnc3-c3ccc(F)cc3OCC(F)(F)F)C2=O)cc1` has a glucosylceramide level of 85 ± 1% (Gaucher disease mouse model, plasma; 10 mg/kg, single dose; reference: vehicle).
`COc1cc(CNC(=O)C[C@H](C)CCC=C(C)C)ccc1OCc1cn(-c2cccc(C(F)(F)F)c2)nn1` has a growth percent of 83.9% (SF-268 CNS cancer cells; SRB; 10 µM, 48 h).
With `COc1ccc(CC(C)=C(c2ccc(Cl)cc2)c2ccc(OCCN3CCCCC3)cc2)cc1` the growth inhibition was 5.84% (NCI-60 tumour cell lines; 10 µM, mean over cell lines).
`Cc1nc(C)c(C=[N+]([O-])C(C)(C)C)nc1C`: “protein level increase” 84% (Western blot, measured: Akt phospho-Ser473; mouse, MPTP model; 10 mg/kg).
`COc1cc(CNC(=O)C[C@H](C)CCC=C(C)C)ccc1OCc1cn(-c2ccc(F)cc2)nn1` has a growth percent of 69.9% (UACC-257 melanoma cells; SRB; 10 µM, 48 h).
`Cn1c(=O)oc2ccc(-c3ccc(CC(C#N)NC(=O)C4CNCCCO4)c(F)c3)cc21` (stereo not drawn) — result for “WBC count decreased incidence”: 0% (human; oral, 10 mg once daily, TEAE, multiple ascending dose).
`CCCCC/C=C/C(=O)CCc1ccc(O)c(OC)c1` has an IC50 of 1.85 µg/mL (≈ 6.69 µM) (mouse mAb 1-G12; antibody binding, indirect competitive ELISA).
`COc1cc(CNC(=O)C[C@H](C)CCC=C(C)C)ccc1OCc1cn(-c2ccc(C#N)cc2)nn1` has a growth percent of 55.3% (OVCAR-4 ovarian cancer cells; SRB; 10 µM, 48 h).
`COc1cc(CCC(C)=O)ccc1O` gave an IC50 of 0.263 µg/mL (≈ 1.36 µM) (mouse mAb 1-G12; antibody binding, indirect competitive ELISA; with: coating antigen 6-OVA).
For `CC(=O)N[C@H](C(=O)N[C@H](C(=O)N[C@@H](CCCNC(=N)N)C(=O)N1Cc2ccccc2C[C@H]1C(=O)N[C@@H](Cc1ccccc1)C(N)=O)C1CCCCC1)C(C)C`, the cytokine level was 739 ± 261 pg/mL (MBP-specific BC-3 T cells; Bio-Plex multiplex, measured: IL-6; 200 µg/mL, 24 h, with: MBP87-99 antigen).
Under protein level, `Cc1cc(/N=N/c2ccc(/N=N/c3ccc(O)c(C(=O)O)c3)cc2)c(N)cc1N` is recorded as “decreased” (primary mouse articular chondrocytes; western blot, measured: Phlpp2; micromass culture; 25 µM, dosed days 4–6 and 4–9).
For `O=Cc1c(O)ccc2ccccc12`, “log2 fold change” read -3.48 (HUVEC; RNA sequencing, measured: PALD1; 75 µM, 24 h; reference: DMSO).
With `[Ru+2].c1ccc(-c2cccc(-c3ccccn3)n2)nc1.c1ccc2nc(-c3ccc4ccccc4n3)ccc2c1.c1cnccn1` the phototoxicity index was 1.9 (HL-60; reference: dark IC50 over light IC50).
With `CC(C)=C1CC[C@]2(COC(=O)c3ccccc3)[C@@H](OC(=O)c3ccccc3)/C=C(\C)CC[C@@H]3O[C@@]3(C)C[C@@H](OC(=O)c3cccnc3)[C@@H]12` the glucose consumption was 4.77 ± 0.79 mM (HepG2, palmitic acid-induced insulin resistance; 2.5 µM, 24 h).
`CC(=O)O[C@H]1C(=O)[C@]2(C)[C@@H](OC(=O)[C@H](N)CSC3CC(=O)N(CCC(=O)Nc4ccc(-c5ccc(/N=N/c6ccc7c(S(=O)(=O)O)cc(S(=O)(=O)O)c(N)c7c6O)c(C)c5)cc4C)C3=O)C[C@H]3OC[C@@]3(OC(C)=O)[C@H]2[C@H](OC(=O)c2ccccc2)[C@]2(O)C[C@H](OC(=O)[C@H](O)[C@@H](NC(=O)c3ccccc3)c3ccccc3)C(C)=C1C2(C)C` (stereo partly drawn) gave a cellular uptake of about 23.2% (U-87 MG; flow cytometry; concentration not given, 4 h).
`O=C(/C=C/c1cccc(S(=O)(=O)Nc2ccc(Cl)cc2F)c1)NO` has a relative potency of 0.309 (MOPC-315; cell growth; 24 h; reference: belinostat).
`COC(=O)C1=CNC=C(C(=O)OC)C1c1ccc(F)c(C(F)(F)F)c1` — result for “store-operated calcium entry”: “decreased” (mouse microglia; 1 µM, with: thapsigargin).
For `Cc1cc(O)c2c(C(=O)[O-])[n+]3n(c2c1)CCCC3`, the glucose consumption was 9.48 ± 0.93 mM (HepG2, palmitic acid-induced insulin resistance; 15 µM, 24 h).
The tissue uptake of `N=C(N)NCCC[C@@H]1NC(=O)[C@H](CCCCNC(=O)CC[C@H](NC(=O)CC[C@H](NC(=O)CN2CCN(CC(=O)O)CCN(CC(=O)O)CCN(CC(=O)O)CC2)C(=O)N[C@@H](CCC(=O)NCCCC[C@@H]2NC(=O)[C@@H](Cc3ccccc3)NC(=O)[C@H](CC(=O)O)NC(=O)CNC(=O)[C@H](CCCNC(=N)N)NC2=O)C(=O)NCCCC[C@@H]2NC(=O)[C@@H](Cc3ccccc3)NC(=O)[C@H](CC(=O)O)NC(=O)CNC(=O)[C@H](CCCNC(=N)N)NC2=O)C(=O)NCCCC[C@@H]2NC(=O)[C@@H](Cc3ccccc3)NC(=O)[C@H](CC(=O)O)NC(=O)CNC(=O)[C@H](CCCNC(=N)N)NC2=O)NC(=O)[C@@H](Cc2ccccc2)NC(=O)[C@H](CC(=O)O)NC(=O)CNC1=O` [indium-111 labelled] is reported as 8.97 ± 0.52 %ID/g (female athymic nu/nu mice, U87MG tumour; intravenous, 111 kBq, 0.5 h).
Under wound closure, `C=CC(=O)Nc1cc(Nc2nccc(-c3c(-c4cccc(OC)c4)n(C)c4ccccc34)n2)c(OC)cc1N(C)CCN(C)C` is recorded as “decreased” (H1975; scratch; concentration not given, 24 h).
The tissue uptake of `[64Cu+2].c1ccc(CNCc2ccc(CN3CCCN4CCNCCCN(CC4)CC3)cc2)nc1` is reported as 8.43 ± 1.06 %ID/g (CXCR4; NOD/SCID mouse, U87 and U87-stb-CXCR4 xenografts, lungs; iv, 90 min, ex vivo).
`COc1ccc(-c2cc(C(F)(F)F)nc(SCC(=O)N(C)c3ccccc3)n2)cc1OC` — result for insulin secretion: “increased” (rat INS-1 832/13 cells; 20 µM, no GLP-1, with: 15 mM glucose; reference: DMSO).
Under GSH level, `Cc1cccc(O[C@H]2CCC[C@@H](C(C)CNCc3ccncc3)C2)c1` (relative stereo) is recorded as “increased” (MC65 Tet-Off cells; concentration not given, dose-dependent).
The growth percent of `COc1cc(CNC(=O)C[C@H](C)CCC=C(C)C)ccc1OCc1cn(-c2ccc(Cl)cc2Cl)nn1` is reported as 89.3% (SW-620; SRB; 10 µM, 48 h).
With `COc1ccc([C@@H]2CC(=O)c3c(O)cc(O[C@@H]4O[C@H](CO[C@@H]5O[C@@H](C)[C@H](O)[C@@H](O)[C@H]5O)[C@@H](O)[C@H](O)[C@H]4O)cc3O2)cc1O` the gap closure was 4.64 ± 0.58% (A549; cell migration, scratch; 50 µg/mL, 24 h).
With `COc1cc(CNC(=O)C[C@H](C)CCC=C(C)C)ccc1OCc1cn(-c2ccccc2)nn1` the growth percent was 66.2% (MDA-MB-468 breast cancer cells; SRB; 10 µM, 48 h).
`CC[C@H](C)[C@H](NC(=O)[C@@H](NC(=O)[C@@H](N)C(C)C)C(C)C)C(=O)N[C@@H](C)C(N)=O` gave a viability of 89.3% (PC-12; Aβ42-induced neurotoxicity, inhibitor, MTT; concentration not given, 6 h, 37 °C, peptide to Aβ42 1:2, with: Aβ42 2 µM; reference: untreated cells).
With `CC(=O)OC[C@H]1O[C@@H](Sc2nc3c4cnn(C(=O)CNc5ccc(C)cc5)c4ncn3n2)[C@H](OC(C)=O)[C@@H](OC(C)=O)[C@@H]1OC(C)=O` the necrotic cells was 7.09% (HCT cells; annexin V-FITC/PI flow cytometry; concentration not given, 48 h).
`CC1=CC(OC(=O)c2ccccc2)C2(COC(=O)c3ccccc3)CCC(=C(C)C)C2C(O)CC2(C)OC2CC1` (stereo not drawn) gave a glucose consumption of 5.56 ± 0.69 mM (HepG2, palmitic acid-induced insulin resistance; 15 µM, 24 h).
`[64Cu+2].c1cnc(CNCc2ccc(CN3CCCN4CCNCCCN(CC4)CC3)cc2)nc1` has a tissue uptake of 89.2 ± 4.29 %ID/g (CXCR4; NOD/SCID mouse, U87 and U87-stb-CXCR4 xenografts, liver; iv, 90 min, ex vivo).

A few entries again:
`COc1cc(CNC(=O)C[C@H](C)CCC=C(C)C)ccc1OCc1cn(-c2ccccc2Cl)nn1` has a growth percent of 56.4% (SF-295 CNS cancer cells; SRB; 10 µM, 48 h).
`O=C1Nc2ccc(Cl)cc2C1=Cc1c(Cl)[nH]c2c1ccc1ccccc12` has a TGI of 7.24 µM (leukaemia subpanel of NCI-60; 48 h).
